# Published values from different studies.
# Compare with care: the assays were run in different laboratories. “And” joins repeats or separate records; there may be more than shown. ± gives the spread as reported.
Compound,target or system,assay,system,setting,scale,endpoint,result
OC[C@@H](O)[C@@H](O)[C@H](O)[C@@H](O)CO,,"binding, MIDAS equilibrium dialysis LC-MS",A2AR-BRIL thermostabilized,concentration not given,relative to: no-protein control,log2 fold change,-0.204
O=C1NC(=O)[C@](CNC(=O)c2cnn(Cc3nccs3)n2)(C2CC2)N1,ADAMTS7 and MMP12,"enzyme activity, inhibitor",,,relative to: ADAMTS7 IC50 over MMP12 IC50,selectivity ratio,4.5
O=C(O)CCCOc1cccc(CNC(=O)C#Cc2cn(Cc3ccc(C(=O)O)cc3)c(=O)[nH]c2=O)c1,MMP-1,"inhibitor, FRET",,10 µM,,remaining MMP-1 activity,103 ± 1%
CNCc1ccc(-c2cc(-c3nc(-c4ccc(S(=O)(=O)C(C)C)cc4)cnc3N)on2)cc1,CK1 (yeast),inhibitor,,"0.4 µM, together with: ATP at Km",,inhibition,0%
CC(=O)NCCCC[C@H](NC(=O)CNC(=O)[C@H](CCCNC(=N)N)NC(C)=O)C(=O)Nc1ccc2c(C)cc(=O)oc2c1,human Y386F mutant enzyme,"substrate, fluorogenic",,,,kcat,0.06 ± 0.02 s⁻¹
CC(C)C[C@@H](C=O)NC(=O)[C@H](CC(C)C)NC(=O)[C@H](CC(C)C)NC(=O)OCc1ccccc1,"p38 MAPK, human","degrader, western blot, refers to: p38 over tubulin",HeLa,concentration not given,relative to: untreated control,relative protein level,1.36
COCCN(C)c1ccc2cc(C(=O)NS(=O)(=O)c3ccccc3-c3ccccc3)oc2c1,"estrogen receptor alpha, human",reporter gene,MCF7-MVLN,24 h,,IC50,> 15.5 µM
CC(Nc1nc(N2CCCC2)nc2ccccc12)c1ccccc1 (centres unmarked),importin α/β1,"cMyc nuclear import, high content imaging",HeLa Kyoto reporter,"0.32 µM, 2 h",,cells with nuclear reporter,88.2% and 98.2%
Oc1ccccc1-c1n[nH]cc1-c1ccnc2ccccc12,SKY1 (Candida albicans),"kinase binding, MIB/MS competition",Candida albicans lysate,1 µM,relative to: DMSO,log2 fold change,-0.41
C[n+]1cccc2cc(C=NNC(=O)c3ccc4ccc5ccc(C(=O)NN=Cc6ccc7c(ccc[n+]7C)c6)nc5c4n3)ccc21.[I-].[I-],22CTA telomeric G4-DNA antiparallel,FRET melting,,"1 µM, K10 buffer, DNA 0.2 µM, together with: ds26 10 µM",,ΔTm,22.6 ± 0.7 °C
O=C(NS(=O)(=O)c1ccccc1-c1ccccc1)c1cc2ccccc2o1,"estrogen receptor alpha, human",reporter gene,MCF7-MVLN,24 h,,IC50,> 20 µM
Cc1ccc(Nc2nccc(N(C)c3ccc4c(C)n(C)nc4c3)n2)cc1S(N)(=O)=O,CK1 (yeast),"kinase activity, inhibitor",,0.3 µM,,inhibition,29%
COc1cccc(CNC(=O)C#Cc2cn(Cc3ccc(C(=O)O)cc3)c(=O)[nH]c2=O)c1,MMP-3,"inhibitor, colorimetric",,20 µM,,remaining MMP-3 activity,85 ± 18%
O=C(O)[C@@H]1CCCN1c1ncnc2[nH]cnc12 (racemic),human THEMIS domain,"binding, affinity selection mass spectrometry",,,relative to: other proteins in batch,fold enrichment,0.87
[Ca+2],human TRPA1,"ion current, two-electrode voltage clamp",Xenopus oocytes,"+80 mV, together with: AITC",,desensitization time constant,7.68 s and 21.4 s and 8.52 s and 20.5 s and 11.5 s
CC(C)C[C@H](NC(=O)[C@@H](O)[C@H](N)Cc1ccccc1)C(=O)O,aminopeptidase W (pig),"enzyme activity, inhibitor",,,,IC50,7.9 µM
CCS(=O)(=O)c1nc(C2CC2)cc(C(F)(F)F)n1,transportin-1/2,"FUS nuclear import, high content imaging",HeLa Kyoto reporter,"0.05 µM, 2 h",,cells with nuclear reporter,95.1% and 98.8%
CN1Cc2cc(Cl)ccc2-n2c(nnc2[C@H]2CC[C@H](Oc3ccccn3)CC2)C1,"vasopressin V1A receptor, mouse","liver uptake of [11C] tracer, blocker, PET imaging",CD-1 mice,"i.v., 3 mg/kg, 5 min before tracer",,tracer uptake,decreased
CC(C)NCCCn1c(Sc2cc3c(cc2I)OCO3)nc2c(N)ncnc21,MyBP-C,,MYBPC3 iPSC-derived cardiomyocytes (human),"concentration not given, fresh powder retest",,activity,inactive
Cc1ccc(N2CC(C(N)=O)CC2=O)cc1 (centres unmarked),human THEMIS domain,"binding, affinity selection mass spectrometry",,,relative to: other proteins in batch,log fold enrichment,0
O=C(NCC1CCOCC1)c1n[nH]cc1NC(=O)c1c(F)cccc1F,human FLT3 ITD F691L,scanMAX,,1 µM,relative to: control,remaining binding,86%
NS(=O)(=O)c1ccc(Nc2nc(-c3ccc(F)cc3)c3ccccc3n2)cc1,TAF1 bromodomain 2,BROMOscan,,1000 nM,"relative to: untreated control, lower = stronger binding",remaining binding,90%
CC(=O)N[C@H](C(=O)N1C[C@H](O)C[C@H]1C(=O)NCc1ccc(-c2scnc2C)cc1)C(C)(C)SCCCCCCNC(=O)C[C@@H]1N=C(c2ccc(Cl)cc2)c2c(sc(C)c2C)-n2c(C)nnc21,plectin (human),TMT proteomics,HeLa,"3 µM, 24 h",relative to: DMSO,relative protein abundance,1.05
C=CC(=O)N1CCN(c2nc(=O)n(-c3c(C)ccnc3C(C)C)c3nc(-c4c(O)cccc4F)c(F)cc23)[C@@H](C)C1,NRAS wild type (human),"SOS-mediated nucleotide exchange, inhibitor",,concentration not given,,inhibition,inactive
CC[S+]([O-])c1nc(-c2ccccc2)cc(C(F)(F)F)n1 (centres unmarked),transportin-1/2,"FUS nuclear import, high content imaging",HeLa Kyoto reporter,"0.158 µM, 2 h",,cells with nuclear reporter,93.1% and 92.7%
O=C(Nc1ccn(Cc2ccc(O)cc2C(F)(F)F)n1)c1c(F)cccc1F,human GABA-A receptor,"receptor activity, agonist",,,,EC50,> 10 µM
COc1cnc(Nc2cccc(S(N)(=O)=O)c2)nc1N1CCN(c2ccccc2)CC1,human FLT3 ITD/F691L,"binding, KINOMEscan",,1000 nM,lower = stronger binding,percent of control,89%
O=C(C#Cc1cn(Cc2ccccc2)c(=O)[nH]c1=O)NCc1ccccc1,MMP-7,"inhibitor, colorimetric",,20 µM,,remaining MMP-7 activity,102 ± 3%
COc1cc(C)c2cc(C(=O)NS(=O)(=O)c3ccccc3-c3ccccc3)oc2c1,"estrogen receptor alpha, human",reporter gene,MCF7-MVLN,24 h,,IC50,> 4.6 µM
CC(=O)O[C@H]1C(=O)[C@@]2(C)[C@H]([C@H](OC(=O)c3ccccc3)[C@]3(O)C[C@H](OC(=O)[C@H](O)[C@@H](NC(=O)c4ccccc4)c4ccccc4)C(C)=C1C3(C)C)[C@]1(OC(C)=O)CO[C@@H]1C[C@@H]2O,tubulin,"tubulin polymerization, inhibitor",Caco-2,"50, 100, 500 ppm",,geometric mean inhibition,63.2%
COc1ccc(C(=O)c2cc3c(-c4ccccc4)c(O)ccc3o2)cc1,tubulin,"tubulin polymerization, inhibitor, turbidimetry",,,relative to: -label,relative potency,2 fold
COc1ccc(C(=O)COc2ccc(N3C(=O)[C@@H]4[C@@H]5C=C[C@@H]([C@H]6C[C@@H]56)[C@@H]4C3=O)cc2)cc1,lanosterol synthase (mouse),,Mut6,0.1 µM,,EPC level,342 ng/mg protein
CC(=O)Nc1cccc(-n2c(=O)n(C3CC3)c(=O)c3c(Nc4ccc(I)cc4F)n(C)c(=O)c(C)c32)c1,IDO1 human,inhibitor,A-431,"1 µM, together with: IFN-γ",,kynurenine production,86.1%
N#Cc1ccc(COc2cccc(C3CCN(Cc4nc5ccc(C(=O)O)cc5n4C[C@@H]4CCO4)CC3)n2)c(F)c1,sodium channel,,,10 µM,,inhibition,61%
C=CCC(=O)OC/C1=C/C[C@@H](/C(C)=C/c2csc(C)n2)OC(=O)C[C@H](O)[C@@](C)(CC=C)C(=O)[C@H](C)[C@@H](O)[C@@H](C)CCC1,tubulin,"tubulin assembly, stimulator",cell-free,,,EC50,0.88 ± 0.06 µM
COc1cc(C)c2cc(C(=O)NS(=O)(=O)c3ccc(C)cc3-c3ccccc3)oc2c1,"estrogen receptor alpha, human",reporter gene,MCF7-MVLN,24 h,,IC50,> 20 µM
CC(C)C(=O)NCC(=O)O,,"binding, MIDAS equilibrium dialysis LC-MS",A2AR-BRIL thermostabilized,concentration not given,relative to: no-protein control,log2 fold change,-0.509
COc1ccc([C@@H](O)[C@@H](C)Oc2ccc([C@H]3O[C@H](c4ccc(O[C@H](C)[C@H](O)c5ccc(OC)c(OC)c5)c(OC)c4)[C@H](C)[C@H]3C)cc2OC)cc1OC,"HIF-1, human","reporter gene, inhibitor",HEK293T,hypoxia,,IC50,0.0112 µM
C=CC(=O)Nc1cc(Nc2nccc(-c3cn(C)c4ccccc34)n2)c(OC)cc1N(C)CCN(C)C,DUSP4 human,"cysteine engagement, chemoproteomic profiling, refers to: DUSP4 Cys12 peptide",NCI-H2073,"10 µM, 2 h",relative to: DMSO,log2 fold change,1.09
Cc1cccc(N2CC(C(=O)O)CC2=O)c1 (centres unmarked),human THEMIS domain,"binding, affinity selection mass spectrometry",,,relative to: other proteins in batch,fold enrichment,1.01
C/C(=C\c1csc(C)n1)[C@@H]1C/C=C2\CCC[C@H](C)[C@H](O)[C@@H](C)C(=O)[C@](C)(CC=CCOC2)[C@@H](O)CC(=O)O1,tubulin,"tubulin assembly, stimulator",cell-free,,,EC50,1.62 ± 0.13 µM

# Excerpt of the above:
Compound,target or system,assay,system,setting,scale,endpoint,result
OC[C@@H](O)[C@@H](O)[C@H](O)[C@@H](O)CO,,"binding, MIDAS equilibrium dialysis LC-MS",A2AR-BRIL thermostabilized,concentration not given,relative to: no-protein control,log2 fold change,-0.204
O=C(NCC1CCOCC1)c1n[nH]cc1NC(=O)c1c(F)cccc1F,human FLT3 ITD F691L,scanMAX,,1 µM,relative to: control,remaining binding,86%
CC(Nc1nc(N2CCCC2)nc2ccccc12)c1ccccc1 (centres unmarked),importin α/β1,"cMyc nuclear import, high content imaging",HeLa Kyoto reporter,"0.32 µM, 2 h",,cells with nuclear reporter,88.2% and 98.2%
O=C1NC(=O)[C@](CNC(=O)c2cnn(Cc3nccs3)n2)(C2CC2)N1,ADAMTS7 and MMP12,"enzyme activity, inhibitor",,,relative to: ADAMTS7 IC50 over MMP12 IC50,selectivity ratio,4.5
COc1ccc(C(=O)COc2ccc(N3C(=O)[C@@H]4[C@@H]5C=C[C@@H]([C@H]6C[C@@H]56)[C@@H]4C3=O)cc2)cc1,lanosterol synthase (mouse),,Mut6,0.1 µM,,EPC level,342 ng/mg protein
